Measured values of several laboratories.
Numbered parts are unrelated; each lists some results of a single study. Changes are numbered by the printed parent chain.

Study 1
Target: Interferon regulatory factor 5, full length, phosphomimetic (IRF5, Homo sapiens, UniProt Q13568-2, residues 1-514, S451D/S453D/S456D/S462D)
Technique: protein-binding microarray
Form: double-stranded DNA, one strand shown
Matrix: in vitro
Tested at: 940 nM top
Notes: 60-bp whole probe
Added: salmon DNA 0.4 mg/ml
Baseline: random background probes
Direction: higher = stronger binding
Constant ends, left off below: GCCTAGCAC … GTCTTGATTCGCTTGACGCTGCTG
Oligonucleotide	fitted relative affinity
GACGGTATCGGTACTGGGGACGTGCTA	7.23 z-score
CAGAGCCTCAGTCCTCACACAGTGCTA	-0.486 z-score
TTAGGTTTCGACTTTCGGTTAGTGCTA	9.12 z-score
TTAGATTTCGGGTATCGACTAGTGCTA	2.28 z-score
GACGGTATCGGGACTGGGGGCGTGCTA	5.15 z-score
TTAGGTTCCCTTTTCCTTTAGTGCTAG	0.885 z-score
TTAGATATCATTCTCGATTAGTGCTAG	2.73 z-score
GACGAACTTAGACTGGAGACGTGCTAG	-0.443 z-score
TGGCCTCTAGGTTTTCTGGAGTGCTAG	-0.34 z-score
TTAGCACTGGGTATCGGTTAGTGCTAG	3.39 z-score
TATGTTCACTATTTAAGACCGTGCTAG	0.181 z-score
GACGGTTCCGGTTTCGGCACGTGCTAG	6.18 z-score
GACGGTATCGGACTAGGGACGTGCTAG	2.94 z-score
TTCGGACTGCTACTGCTTTAGTGCTAG	-0.405 z-score
TTAGATTTCGGCTATCGATTAGTGCTA	1.12 z-score
TTAGGACTGCTACTCCTTTAGTGCTAG	-0.229 z-score
GACGGACTGGGTTTCGCGACGTGCTAG	0.153 z-score
GACGGTTTGGGGTATCGGGACGTGCTA	0.902 z-score
TCATTTATGTACTCTCTAACTGTGCTA	1.06 z-score

Study 2
Target: CCND1, cyclin fold, Cln2 fusion (human)
Technique: yeast growth competition, sequencing
Matrix: yeast
Notes: weak parent motif
Baseline: not given
Direction: higher = stronger binding
Starting sequence: BRCA2 docking peptide (human); PSIKRNLLNEFDR; partner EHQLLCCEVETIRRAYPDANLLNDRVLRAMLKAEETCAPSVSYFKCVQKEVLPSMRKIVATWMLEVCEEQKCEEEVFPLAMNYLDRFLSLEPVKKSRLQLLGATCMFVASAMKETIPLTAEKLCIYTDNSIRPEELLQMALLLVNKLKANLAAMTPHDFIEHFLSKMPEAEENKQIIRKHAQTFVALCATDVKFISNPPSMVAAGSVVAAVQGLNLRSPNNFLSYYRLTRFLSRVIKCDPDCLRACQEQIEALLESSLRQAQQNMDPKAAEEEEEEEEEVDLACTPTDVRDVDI
Substitution	normalised enrichment score
PSIKRNRLNEFDR [L7R]	-0.0392
PSINRNLLNEFDR [K4N]	0.0365
FSIKRNLLNEFDR [P1F]	0.064
PSIKRNSLNEFDR [L7S]	-0.206
PSIKRLLLNEFDR [N6L]	0.0335
PSIKRMLLNEFDR [N6M]	-0.076
PSIKRNLLNENDR [F11N]	-1
PSIKANALNEFDR [R5A L7A]	0.133
PSIKRNWLNEFDR [L7W]	-0.057
PSIKRHLLNEFDR [N6H]	0.0207
PRIKRNLLNEFDR [S2R]	-0.0156
PSIRRNLLNEFDR [K4R]	0.113
PSIKRNLLSEFDR [N9S]	0.764
PSIKRNLLNEFDL [R13L]	0.392

Study 3
Target: ABI1, truncated, D143A, DHFR fusion (Arabidopsis thaliana)
Technique: DHFR PCA, deep sequencing
Matrix: yeast
Notes: methotrexate growth selection, single substitutions
Added: (+)-ABA 200 µM
Baseline: wild-type fitted maximum
Direction: higher = stronger binding
Starting sequence: PYL1, truncated, DHFR fusion (Arabidopsis thaliana); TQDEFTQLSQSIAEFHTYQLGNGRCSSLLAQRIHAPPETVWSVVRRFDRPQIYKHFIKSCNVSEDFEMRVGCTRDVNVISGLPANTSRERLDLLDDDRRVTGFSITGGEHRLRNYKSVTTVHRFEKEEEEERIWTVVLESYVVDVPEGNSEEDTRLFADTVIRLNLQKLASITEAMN
Substitution	relative binding score
S104V	60.4%
E4K	87.1%
C72H	92.9%
P36C	85.7%
F5N	82%
V136W	86.2%
Q51S	79%
E130M	101%
F157P	-0.441%
S117W	-8.27%
D65N	98.5%
R98A	96.8%
A175G	103%

Study 4
Target: Histone acetyltransferase KAT6A, winged helix 1, GST fusion (KAT6A, Homo sapiens, UniProt Q92794, residues 1-85)
Technique: protein binding microarray
Form: double-stranded DNA, one strand shown
Matrix: in vitro
Tested at: not given
Notes: 8-mer, flanks averaged, mean of 2 arrays, mostly near background
Baseline: not given
Direction: higher = stronger binding
Construct (chain): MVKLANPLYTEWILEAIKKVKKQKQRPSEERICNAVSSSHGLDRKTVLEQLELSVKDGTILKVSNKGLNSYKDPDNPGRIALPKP
Oligonucleotide	E-score
AAGGCTAG	-0.0867
AATAAGTC	-0.169
ACTCATCA	-0.0863
GACACCCA	-0.243
AGCAAAGC	-0.0257
ACCTCAAA	-0.106
CATATAAG	-0.287
GTTCACCA	0.00271
CTTAGGGA	-0.224
CTGAAAAA	-0.209
CCACCGCA	0.211
CCCTCGCA	0.0164
AACTCTCT	-0.239
GACTGGCC	-0.0552
CCTTCGAG	-0.0277
AAACCGCC	0.221
GCCCGCCA	0.208

Repeated from above (study 4):
Oligonucleotide	E-score
AAGGCTAG	-0.0867
AATAAGTC	-0.169
ACTCATCA	-0.0863
GACACCCA	-0.243
AGCAAAGC	-0.0257
ACCTCAAA	-0.106
CATATAAG	-0.287
GTTCACCA	0.00271
CTTAGGGA	-0.224
CTGAAAAA	-0.209
